Measurements collected from several papers.
Lines come from different studies, so protocols differ. Values joined by “and” are separate records of one study, mostly repeats; a detail may differ. Numbers after ± are the reported error.

Structure (SMILES) | test | system | conditions | how to read | quantity | result
[2H]C1([2H])CC[C@@H](C[C@@H](C#N)NC(=O)[C@@H]2[C@@H]3[C@H](CN2C(=O)[C@@H](NC(=O)C(F)F)C(C)(C)C)C3(C)C)C(=O)N1 |  | human liver microsomes | 60 min |  | remaining compound | 101%
C=CC(=O)Nc1cc(Nc2nccc(-c3cn(C)c4ccccc34)n2)c(OC)cc1N(C)CCNC | storage stability | human plasma | 270 ng/mL, 5 h, -80 °C, HQC level |  | remaining amount | 99.2%
CCN(CC)CC#CCNc1ccnc2cc(Cl)ccc12 |  | monkey hepatocytes | 10 µM, 30 min | relative to: time zero | remaining parent | 39.3%
CN(Cc1cc(C2CC2)on1)C(=O)c1cccc(-c2ccc(F)cc2)c1 |  | human liver microsomes | 2 µM, 15 min, pH 7.5, without ABT |  | remaining compound | 79.4%
CSCC[C@@H](N)C(=O)N[C@@H](CC(C)C)C(=O)N[C@@H](CCCNC(=N)N)C(=O)N[C@@H](Cc1c[nH]c2ccccc12)C(=O)N[C@@H](CO)C(=O)N[C@@H](CCCNC(=N)N)C(=O)N[C@@H](CCCCN)C(=O)N[C@@H](CCSC)C(=O)N1CCC[C@H]1C(=O)N[C@@H](CS)C(=O)N[C@H](C(=O)N[C@@H](CO)C(=O)O)C(C)C | 12G5 competition, SUP-T1 cells | human plasma | 20 µM, 2 h, 37 °C |  | remaining activity | 68 ± 8%
CC(C)(C)[C@H](NC(=O)c1ccc(Oc2ccc(C(=O)N[C@H]3CCCC[C@@H]3O)cc2)cc1)C(=O)NCCN1CCCC1 |  | mouse liver microsomes | 1 µM, 20 min, pH 7.4 |  | remaining compound | 87.3%
CC[C@H](C)[C@@H](C(=O)N[C@@H](CC(C)C)C(=O)N[C@@H](CO)C(=O)N[C@@H](CO)C(=O)N[C@H](C(=O)N[C@@H](CCC(=O)O)C(=O)N[C@H](C(=O)NCC(=O)N[C@@H](CO)C(=O)N[C@@H](CO)C(=O)N[C@H](C(=O)N1C[C@H](O)C[C@H]1C(N)=O)[C@@H](C)O)C(C)C)[C@@H](C)O)N(C)C(=O)[C@H](C)NC(=O)CN(C)C(=O)[C@H](Cc1ccccc1)NC(=O)[C@H](CO)NC(=O)[C@H](CO)NC(=O)[C@H](CCCNC(=N)N)NC(=O)[C@H](CCC(N)=O)NC(=O)[C@H](CC(C)C)NC(=O)[C@H](Cc1ccccc1)NC(=O)[C@H](Cc1c[nH]cn1)NC(=O)[C@H](C)NC(=O)[C@H](CC(C)C)NC(=O)[C@H](CCCNC(=N)N)NC(=O)[C@H](CCC(=O)O)NC(=O)[C@@H](NC(=O)[C@H](C)NC(=O)[C@@H]1CSSC[C@H](NC(=O)[C@H](CCCNC(=N)N)NC(=O)CC[C@H](NC(=O)CCCCCCCCCCCCCCCCCCC(=O)O)C(=O)O)C(=O)NCC(=O)N[C@@H]([C@@H](C)O)C(=O)N[C@@H](C)C(=O)N[C@@H]([C@@H](C)O)C(=O)N1)[C@@H](C)O | RP-HPLC | water | 7 days, pH 7.5, 40 °C |  | remaining main peak | 76 area %
Cc1ccc(C(C)C)cc1.F[P-](F)(F)(F)(F)F.O=C(N=P(c1ccccc1)(c1ccccc1)c1ccccc1)c1ccccn1.[Cl-].[Ru+2] |  | DMSO-d6 | 2 weeks |  | remaining intact compound | > 99%
C[C@](C(=O)NC1CCC(F)(F)CC1)(c1cncnc1)N(C(=O)[C@H](F)Cl)c1ccc(OC(F)(F)F)cc1 |  | mouse liver microsomes | concentration not given, 1 h, pH 7.4 |  | remaining compound | 11.8%
Cc1ccc(C(C)C)cc1.O=C(N=P12CN3CN(CN(C3)C1)C2)c1[c-]cccc1.[Cl-].[Ru+2] |  | DMSO-d6 | 2 weeks |  | remaining intact compound | 27%
CC[C@H](C)[C@@H](C(=O)N[C@@H](CC(C)C)C(=O)N[C@@H](CO)C(=O)N[C@@H](CO)C(=O)N[C@H](C(=O)N[C@@H](CCC(=O)O)C(=O)N[C@H](C(=O)NCC(=O)N[C@@H](CO)C(=O)N[C@@H](CC(N)=O)C(=O)N[C@H](C(=O)N1C[C@H](O)C[C@H]1C(N)=O)[C@@H](C)O)C(C)C)[C@@H](C)O)N(C)C(=O)[C@H](C)NC(=O)CN(C)C(=O)[C@H](Cc1ccccc1)NC(=O)[C@H](CO)NC(=O)[C@H](CO)NC(=O)[C@H](CCCNC(=N)N)NC(=O)[C@H](CCC(N)=O)NC(=O)[C@H](CC(C)C)NC(=O)[C@H](Cc1ccccc1)NC(=O)[C@H](CC(=O)O)NC(=O)[C@H](C)NC(=O)[C@H](CC(C)C)NC(=O)[C@H](CCCNC(=N)N)NC(=O)[C@H](CCC(N)=O)NC(=O)[C@@H](NC(=O)[C@H](C)NC(=O)[C@@H]1CSSC[C@H](NC(=O)[C@H](CCCNC(=N)N)NC(=O)CC[C@H](NC(=O)CCCCCCCCCCCCCCCCCCC(=O)O)C(=O)O)C(=O)N[C@@H](CC(N)=O)C(=O)N[C@@H]([C@@H](C)O)C(=O)N[C@@H](C)C(=O)N[C@@H]([C@@H](C)O)C(=O)N1)[C@@H](C)O | RP-HPLC | water | 7 days, pH 6.0, 40 °C |  | remaining main peak | 97 area %
N=C(N)NCCC[C@@H]1NC(=O)[C@H](CCCNC(=N)N)NC(=O)[C@@H](C(c2ccccc2)c2ccccc2)NC(=O)[C@H](Cc2c[nH]c3ccccc23)NC(=O)[C@@H](C(c2ccccc2)c2ccccc2)NC(=O)[C@@H](CCCNC(=N)N)NC(=O)[C@@H](CCCNC(=N)N)NC1=O | LC-MS | human plasma | 6 h |  | remaining peptide | 50.7%
CC[C@H](C)[C@@H](C(=O)N[C@@H](CC(C)C)C(=O)N[C@@H](CO)C(=O)N[C@@H](CO)C(=O)N[C@H](C(=O)N[C@@H](CCC(=O)O)C(=O)N[C@H](C(=O)NCC(=O)N[C@@H](CO)C(=O)N[C@@H](CC(N)=O)C(=O)N[C@H](C(=O)N1C[C@H](O)C[C@H]1C(N)=O)[C@@H](C)O)C(C)C)[C@@H](C)O)N(C)C(=O)[C@H](C)NC(=O)CN(C)C(=O)[C@H](Cc1ccccc1)NC(=O)[C@H](CO)NC(=O)[C@H](CO)NC(=O)[C@H](CCCNC(=N)N)NC(=O)[C@H](CCC(N)=O)NC(=O)[C@H](CC(C)C)NC(=O)[C@H](Cc1ccccc1)NC(=O)[C@H](Cc1c[nH]cn1)NC(=O)[C@H](C)NC(=O)[C@H](CC(C)C)NC(=O)[C@H](CCCNC(=N)N)NC(=O)[C@H](CCC(=O)O)NC(=O)[C@@H](NC(=O)[C@H](C)NC(=O)[C@@H]1CSSC[C@H](NC(=O)[C@H](CCCNC(=N)N)NC(=O)CC[C@H](NC(=O)CCCCCCCCCCCCCCCCCCC(=O)O)C(=O)O)C(=O)N[C@@H](CCC(N)=O)C(=O)N[C@@H]([C@@H](C)O)C(=O)N[C@@H](C)C(=O)N[C@@H]([C@@H](C)O)C(=O)N1)[C@@H](C)O | RP-HPLC | water | 7 days, pH 7.5, 40 °C |  | remaining main peak | 96 area %
O=C(NC1CCC(F)(F)CC1)C(c1cncnc1)N(C(=O)C(F)Cl)c1ccc(-c2cncs2)cc1 (stereo not shown) |  | mouse liver microsomes | concentration not given, 0.08333 h, pH 7.4 |  | remaining compound | 84.5%
CC[C@H](C)[C@@H](C(=O)N[C@@H](CC(C)C)C(=O)N[C@@H](CO)C(=O)N[C@@H](CO)C(=O)N[C@H](C(=O)N[C@@H](CCC(=O)O)C(=O)N[C@H](C(=O)NCC(=O)N[C@@H](CO)C(=O)N[C@@H](CO)C(=O)N[C@H](C(=O)N1C[C@H](O)C[C@H]1C(N)=O)[C@@H](C)O)C(C)C)[C@@H](C)O)N(C)C(=O)[C@H](C)NC(=O)CN(C)C(=O)[C@H](Cc1ccccc1)NC(=O)[C@H](CO)NC(=O)[C@H](CO)NC(=O)[C@H](CCCNC(=N)N)NC(=O)[C@@H](NC(=O)[C@H](CC(C)C)NC(=O)[C@H](Cc1ccccc1)NC(=O)[C@H](Cc1c[nH]cn1)NC(=O)[C@H](C)NC(=O)[C@H](CC(C)C)NC(=O)[C@H](CCCNC(=N)N)NC(=O)[C@H](CCC(=O)O)NC(=O)[C@@H](NC(=O)[C@H](C)NC(=O)[C@@H]1CSSC[C@H](NC(=O)[C@H](CCCNC(=N)N)NC(=O)CC[C@H](NC(=O)CCCCCCCCCCCCCCCCCCC(=O)O)C(=O)O)C(=O)NCC(=O)N[C@@H]([C@@H](C)O)C(=O)N[C@@H](C)C(=O)N[C@@H]([C@@H](C)O)C(=O)N1)[C@@H](C)O)[C@@H](C)O | RP-HPLC | water | 7 days, pH 6.0, 40 °C |  | remaining main peak | 87 area %
CC(C)(C)[Si](C)(C)Oc1ccc(COC(=O)NNc2ccccc2)cc1 |  | PBS | 0 h, 37 °C | relative to: initial amount | remaining fraction | 0.99 and 1 and 0.98

A few entries again:
Structure (SMILES) | test | system | conditions | how to read | quantity | result
CSCC[C@@H](N)C(=O)N[C@@H](CC(C)C)C(=O)N[C@@H](CCCNC(=N)N)C(=O)N[C@@H](Cc1c[nH]c2ccccc12)C(=O)N[C@@H](CO)C(=O)N[C@@H](CCCNC(=N)N)C(=O)N[C@@H](CCCCN)C(=O)N[C@@H](CCSC)C(=O)N1CCC[C@H]1C(=O)N[C@@H](CS)C(=O)N[C@H](C(=O)N[C@@H](CO)C(=O)O)C(C)C | 12G5 competition, SUP-T1 cells | human plasma | 20 µM, 2 h, 37 °C |  | remaining activity | 68 ± 8%
Cc1ccc(C(C)C)cc1.F[P-](F)(F)(F)(F)F.O=C(N=P(c1ccccc1)(c1ccccc1)c1ccccc1)c1ccccn1.[Cl-].[Ru+2] |  | DMSO-d6 | 2 weeks |  | remaining intact compound | > 99%
